Measurements from different studies.
Each numbered part is a random draw from the data of one study; scales do not carry over between parts. Positions count from the first letter of the parent shown.
Chain of UniProt P42336 (whole entry, unmodified, looked up): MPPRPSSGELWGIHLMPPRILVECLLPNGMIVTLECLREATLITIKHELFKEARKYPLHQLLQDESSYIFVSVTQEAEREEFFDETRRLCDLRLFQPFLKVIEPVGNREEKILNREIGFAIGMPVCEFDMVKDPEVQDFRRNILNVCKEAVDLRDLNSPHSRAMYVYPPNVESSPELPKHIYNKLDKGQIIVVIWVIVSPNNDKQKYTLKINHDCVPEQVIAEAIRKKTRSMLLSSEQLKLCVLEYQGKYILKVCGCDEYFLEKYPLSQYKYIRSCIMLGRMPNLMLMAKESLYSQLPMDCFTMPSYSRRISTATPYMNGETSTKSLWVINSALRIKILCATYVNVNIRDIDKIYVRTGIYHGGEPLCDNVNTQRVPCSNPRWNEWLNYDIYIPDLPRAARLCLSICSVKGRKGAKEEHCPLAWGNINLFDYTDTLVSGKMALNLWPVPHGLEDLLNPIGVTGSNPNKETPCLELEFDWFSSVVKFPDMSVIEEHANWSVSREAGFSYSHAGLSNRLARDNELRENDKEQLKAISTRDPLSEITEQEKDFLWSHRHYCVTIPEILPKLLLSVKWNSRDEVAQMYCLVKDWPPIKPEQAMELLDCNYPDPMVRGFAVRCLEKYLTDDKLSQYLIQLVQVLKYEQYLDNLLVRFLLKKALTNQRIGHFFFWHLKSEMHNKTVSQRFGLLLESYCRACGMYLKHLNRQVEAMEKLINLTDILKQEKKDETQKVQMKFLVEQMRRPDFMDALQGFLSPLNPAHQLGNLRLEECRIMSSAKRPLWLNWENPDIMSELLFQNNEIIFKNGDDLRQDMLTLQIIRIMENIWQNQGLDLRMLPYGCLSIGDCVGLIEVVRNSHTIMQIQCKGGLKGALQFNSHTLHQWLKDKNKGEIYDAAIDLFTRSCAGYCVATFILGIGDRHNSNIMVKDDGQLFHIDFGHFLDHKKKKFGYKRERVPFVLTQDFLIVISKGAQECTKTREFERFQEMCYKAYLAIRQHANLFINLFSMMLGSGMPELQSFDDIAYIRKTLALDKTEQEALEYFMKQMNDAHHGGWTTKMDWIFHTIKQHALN
Chain of UniProt Q00535 (whole entry, looked up): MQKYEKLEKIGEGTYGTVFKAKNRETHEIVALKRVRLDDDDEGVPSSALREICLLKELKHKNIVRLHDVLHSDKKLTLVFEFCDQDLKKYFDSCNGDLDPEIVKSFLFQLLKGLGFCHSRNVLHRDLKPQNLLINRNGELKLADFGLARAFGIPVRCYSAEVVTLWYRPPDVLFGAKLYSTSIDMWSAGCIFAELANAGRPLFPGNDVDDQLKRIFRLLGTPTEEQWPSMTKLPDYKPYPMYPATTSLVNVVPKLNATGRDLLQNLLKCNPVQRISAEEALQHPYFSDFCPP
Chain of UniProt O95835 (whole entry, looked up): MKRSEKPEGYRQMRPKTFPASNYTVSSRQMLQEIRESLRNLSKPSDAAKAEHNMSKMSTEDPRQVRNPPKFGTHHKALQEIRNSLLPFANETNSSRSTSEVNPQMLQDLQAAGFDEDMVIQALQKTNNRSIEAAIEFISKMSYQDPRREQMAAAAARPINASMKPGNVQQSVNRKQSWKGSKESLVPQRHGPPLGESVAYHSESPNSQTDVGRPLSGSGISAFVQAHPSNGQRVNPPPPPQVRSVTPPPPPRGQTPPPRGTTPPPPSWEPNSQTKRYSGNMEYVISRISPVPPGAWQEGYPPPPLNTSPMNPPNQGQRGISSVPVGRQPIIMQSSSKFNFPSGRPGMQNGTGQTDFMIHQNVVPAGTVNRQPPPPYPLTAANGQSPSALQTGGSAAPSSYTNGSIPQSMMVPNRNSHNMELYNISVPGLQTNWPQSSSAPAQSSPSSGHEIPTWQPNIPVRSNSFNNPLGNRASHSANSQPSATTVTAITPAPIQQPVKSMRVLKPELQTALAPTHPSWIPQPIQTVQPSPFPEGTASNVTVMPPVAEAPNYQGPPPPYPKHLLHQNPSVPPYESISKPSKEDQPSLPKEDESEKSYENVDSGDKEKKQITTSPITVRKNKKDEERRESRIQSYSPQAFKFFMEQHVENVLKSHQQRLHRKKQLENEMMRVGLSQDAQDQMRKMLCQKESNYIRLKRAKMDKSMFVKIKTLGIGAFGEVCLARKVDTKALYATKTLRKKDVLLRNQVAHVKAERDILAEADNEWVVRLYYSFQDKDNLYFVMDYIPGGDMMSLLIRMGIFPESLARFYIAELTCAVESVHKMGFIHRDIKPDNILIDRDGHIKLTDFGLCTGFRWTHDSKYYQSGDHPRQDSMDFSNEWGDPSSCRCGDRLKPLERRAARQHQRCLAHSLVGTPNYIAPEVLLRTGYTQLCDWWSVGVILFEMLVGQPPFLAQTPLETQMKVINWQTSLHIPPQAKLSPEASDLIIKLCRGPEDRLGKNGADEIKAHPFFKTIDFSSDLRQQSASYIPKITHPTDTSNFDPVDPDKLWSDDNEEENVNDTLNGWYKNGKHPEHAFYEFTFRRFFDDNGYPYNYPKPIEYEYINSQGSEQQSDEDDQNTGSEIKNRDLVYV
Chain of UniProt Q9UM73 (whole entry, looked up): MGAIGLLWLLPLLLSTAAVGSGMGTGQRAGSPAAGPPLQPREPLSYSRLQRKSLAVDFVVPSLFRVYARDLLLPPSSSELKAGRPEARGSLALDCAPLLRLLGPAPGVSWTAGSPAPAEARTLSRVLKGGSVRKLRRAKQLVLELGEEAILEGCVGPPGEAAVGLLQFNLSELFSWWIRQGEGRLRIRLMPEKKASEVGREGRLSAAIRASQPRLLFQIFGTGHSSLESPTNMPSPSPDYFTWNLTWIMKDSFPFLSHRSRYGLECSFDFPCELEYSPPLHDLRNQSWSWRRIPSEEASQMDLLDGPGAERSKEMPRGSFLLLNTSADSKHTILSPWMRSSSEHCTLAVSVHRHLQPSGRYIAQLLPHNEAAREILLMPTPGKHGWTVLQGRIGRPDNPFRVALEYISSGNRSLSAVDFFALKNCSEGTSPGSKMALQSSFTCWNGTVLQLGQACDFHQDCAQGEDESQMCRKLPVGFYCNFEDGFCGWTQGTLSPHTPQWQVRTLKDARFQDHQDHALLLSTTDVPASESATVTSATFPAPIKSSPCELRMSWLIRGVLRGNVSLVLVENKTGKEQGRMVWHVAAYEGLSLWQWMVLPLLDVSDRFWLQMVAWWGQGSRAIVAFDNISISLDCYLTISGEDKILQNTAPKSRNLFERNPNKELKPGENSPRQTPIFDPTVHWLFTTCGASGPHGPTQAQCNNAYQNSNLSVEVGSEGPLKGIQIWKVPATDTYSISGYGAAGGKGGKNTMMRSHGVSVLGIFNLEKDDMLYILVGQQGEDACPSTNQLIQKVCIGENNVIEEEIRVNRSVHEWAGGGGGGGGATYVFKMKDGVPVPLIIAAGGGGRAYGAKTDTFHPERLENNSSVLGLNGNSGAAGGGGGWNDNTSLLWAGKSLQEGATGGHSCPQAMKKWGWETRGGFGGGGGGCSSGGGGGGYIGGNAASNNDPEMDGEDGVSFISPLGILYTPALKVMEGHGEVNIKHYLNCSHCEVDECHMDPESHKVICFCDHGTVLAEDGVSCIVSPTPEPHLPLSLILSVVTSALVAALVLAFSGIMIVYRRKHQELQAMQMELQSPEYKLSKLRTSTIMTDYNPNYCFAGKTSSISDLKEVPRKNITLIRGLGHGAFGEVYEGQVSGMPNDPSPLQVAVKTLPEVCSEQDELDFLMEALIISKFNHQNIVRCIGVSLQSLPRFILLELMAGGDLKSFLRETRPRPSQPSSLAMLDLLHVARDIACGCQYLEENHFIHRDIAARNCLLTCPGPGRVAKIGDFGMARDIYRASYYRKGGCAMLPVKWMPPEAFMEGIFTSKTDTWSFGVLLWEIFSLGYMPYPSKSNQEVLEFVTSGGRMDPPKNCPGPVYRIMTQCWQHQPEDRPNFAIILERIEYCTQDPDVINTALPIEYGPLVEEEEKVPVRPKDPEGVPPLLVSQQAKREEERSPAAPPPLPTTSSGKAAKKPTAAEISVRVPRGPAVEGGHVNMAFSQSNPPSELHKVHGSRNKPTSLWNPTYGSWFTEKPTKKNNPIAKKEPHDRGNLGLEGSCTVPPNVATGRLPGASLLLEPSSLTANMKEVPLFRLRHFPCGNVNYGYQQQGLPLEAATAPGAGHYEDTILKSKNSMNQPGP
Chain of UniProt O94768 (whole entry, looked up): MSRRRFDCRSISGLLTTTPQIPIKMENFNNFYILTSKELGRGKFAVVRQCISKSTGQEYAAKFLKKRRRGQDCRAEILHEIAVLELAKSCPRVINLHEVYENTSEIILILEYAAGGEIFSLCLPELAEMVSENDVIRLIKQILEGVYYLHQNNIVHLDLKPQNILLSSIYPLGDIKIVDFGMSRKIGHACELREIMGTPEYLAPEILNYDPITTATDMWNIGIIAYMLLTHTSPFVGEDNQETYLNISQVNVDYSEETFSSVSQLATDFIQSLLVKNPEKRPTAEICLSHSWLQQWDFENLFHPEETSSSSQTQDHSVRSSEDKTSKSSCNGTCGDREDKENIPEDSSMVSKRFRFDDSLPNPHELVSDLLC

Set 1 — target: CREB3, bZIP domain (human); technique: DHFR protein complementation; medium: yeast; relative to: wild-type JUN-FOS pair; reading: higher = stronger binding
Notes: single substitutions, most at no-binding floor
Parent: JUN, bZIP domain (human); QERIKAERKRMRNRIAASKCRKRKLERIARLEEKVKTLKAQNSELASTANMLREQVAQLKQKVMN; partner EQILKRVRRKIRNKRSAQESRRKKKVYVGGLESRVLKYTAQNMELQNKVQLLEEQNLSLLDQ
With `V35I` the binding fitness was -1.32 natural log.
The binding fitness of `L31H` is reported as -1.53 natural log.
`A57R` gave a binding fitness of -1.23 natural log.
`A46G` has a binding fitness of -1.44 natural log.
`I28L` gave a binding fitness of -1.53 natural log.
For `I28Y`, the binding fitness was -1.45 natural log.
For `T48P`, the binding fitness was -1.53 natural log.
With `A57H` the binding fitness was -1.45 natural log.

Set 2 — technique: RNA Bind-n-Seq; molecule type: RNA; medium: in vitro; tested at: 200 nM; notes: whole 134-nt RNA, ends assumed; added: 150 mM KCl; relative to: input library; reading: higher = stronger binding
Target: Ras GTPase-activating protein-binding protein 1, full length (G3BP1, Homo sapiens, UniProt Q13283)
Chain of UniProt Q13283 (whole entry, looked up): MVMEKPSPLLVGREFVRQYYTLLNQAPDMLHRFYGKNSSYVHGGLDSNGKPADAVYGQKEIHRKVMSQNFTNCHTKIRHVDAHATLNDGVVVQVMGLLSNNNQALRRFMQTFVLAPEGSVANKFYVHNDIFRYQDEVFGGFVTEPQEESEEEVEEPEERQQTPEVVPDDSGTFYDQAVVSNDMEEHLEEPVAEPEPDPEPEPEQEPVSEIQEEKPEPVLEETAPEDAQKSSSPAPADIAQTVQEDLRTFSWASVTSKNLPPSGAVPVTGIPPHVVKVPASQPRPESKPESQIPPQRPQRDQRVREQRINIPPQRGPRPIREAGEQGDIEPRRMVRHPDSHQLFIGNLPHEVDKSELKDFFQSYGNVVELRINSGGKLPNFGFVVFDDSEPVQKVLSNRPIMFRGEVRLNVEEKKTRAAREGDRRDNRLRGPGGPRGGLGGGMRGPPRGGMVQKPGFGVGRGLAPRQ
With `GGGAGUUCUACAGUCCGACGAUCGCAGGAAGUAAAAACAAAUGGAAAUGCUUCGGAUAGUGGCAGGGGUGGGGGUUGCUAAGGAAAGGGUGGGAUGGGAGUGCGUAAAGAGUUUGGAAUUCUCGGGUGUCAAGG` the log2 enrichment was 0.736.
The log2 enrichment of `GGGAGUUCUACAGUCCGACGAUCCUGUGCUACACAUCGUAUGUACCGAAUCAAAGUGUGUGUGUGUGUAAAGUGUGUGUGUAAAAAAGUAUUAUGUUACGCCGUUCGGAUCUGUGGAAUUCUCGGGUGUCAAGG` is reported as -0.516.
The log2 enrichment of `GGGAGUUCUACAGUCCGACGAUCUGGCAGCGGCCAUGGACCGCUUCGUUUGGACCAGCGGCCUCCUGGAGAUCAACGAGACCCUGGUGAUCCAGCAGCGCGGGGUGCGAAUCUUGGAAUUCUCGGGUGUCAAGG` is reported as -0.738.
For `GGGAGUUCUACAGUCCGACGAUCGUCCUGUGCUACACAUCGUAUGUACCGAAUCGGGGAGGGGUUUUUUUGGGGUUUGGGGAAAGUAUUAUGUUACGCCGUUCGGAUCUGCACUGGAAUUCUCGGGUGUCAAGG`, the log2 enrichment was 0.393.
`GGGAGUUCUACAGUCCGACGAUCCAAGUCCUGUGCUACACAUCGUAUGUACCGAAUCGGGUUUGGGAAAAAGGGUGGGAAAGUAUUAUGUUACGCCGUUCGGAUCUGCACUUCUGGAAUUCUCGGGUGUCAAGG` has a log2 enrichment of 1.02.
`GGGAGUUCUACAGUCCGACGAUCUCCUGUGCUACACAUCGUAUGUACCGAAUCGGGGUUUUUUGGUUUUUUGGGUUUUUUGGAAAGUAUUAUGUUACGCCGUUCGGAUCUGCAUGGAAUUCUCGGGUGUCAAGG` has a log2 enrichment of -0.475.
The log2 enrichment of `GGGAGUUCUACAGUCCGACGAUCUGGCCCUGGUGGCAUGCGGGGAGGAAGAGGUGGCCUCAUGGAUCGUGGUGGUCCCGGUGGAAUGUUCAGAGUUGGCCGUGGUGGAGACAGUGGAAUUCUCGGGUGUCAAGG` is reported as 0.201.
For `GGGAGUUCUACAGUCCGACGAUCUACAGGAGCUUCCUGGGACUGACCUGCCUGAUGCAAAUUUCUACUCGGACGGAAGACUUCAUCAUUGACACCCUCGAGCUUCGAAGUGACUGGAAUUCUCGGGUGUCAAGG`, the log2 enrichment was 0.288.

Set 3 — target: CCND1, cyclin fold, Cln2 fusion (human); technique: yeast growth competition, sequencing; medium: yeast; notes: weak parent motif; relative to: not given; reading: higher = stronger binding
Parent: HIRA docking peptide (human); SLSKRKLELEVET
`S1A`: “normalised enrichment score” 0.516.
Under “normalised enrichment score”, `V11A` is recorded as -0.113.
`S3A` — result for “normalised enrichment score”: 0.354.
`L7A`: “normalised enrichment score” 0.5.
For `K6A`, “normalised enrichment score” read 1.04.
`E8A` — result for “normalised enrichment score”: 0.825.
`R5K L9F` — result for “normalised enrichment score”: 0.58.
`L2A` — result for “normalised enrichment score”: 0.67.

Set 4 — observed: cell-free assay; technique: competition with immobilised ligand; tested at: 1 µM
Compound: CS(=O)(=O)NCC[C@H](NC(=O)c1cncc2c1cnn2-c1ccc(F)cc1)c1ccnc(S(C)(=O)=O)c1
The remaining binding was 96% (Mitogen-activated protein kinase kinase kinase 5 (MAP3K5, Homo sapiens, UniProt Q99683)).
ALK tyrosine kinase receptor (ALK, Homo sapiens, UniProt Q9UM73) — remaining binding: 100%.
For Mitogen-activated protein kinase 6 (MAPK6, Homo sapiens, UniProt Q16659): remaining binding read 100%.
Cyclin-dependent kinase 5 (CDK5, Homo sapiens, UniProt Q00535) — remaining binding: 100%.
It gave 79% for remaining binding (Serine/threonine-protein kinase B-raf (BRAF, Homo sapiens, UniProt P15056)).
Serine/threonine-protein kinase MRCK alpha (CDC42BPA, Homo sapiens, UniProt Q5VT25) — remaining binding: 100%.
For Focal adhesion kinase 1 (PTK2, Homo sapiens, UniProt Q05397): remaining binding read 93%.
It gave 78% for remaining binding (Phosphatidylinositol 4,5-bisphosphate 3-kinase catalytic subunit alpha isoform (PIK3CA, Homo sapiens, UniProt P42336, E545K)).
Ankyrin repeat and protein kinase domain-containing protein 1 (ANKK1, Homo sapiens, UniProt Q8NFD2) — remaining binding: 100%.
The remaining binding was 96% (Proto-oncogene tyrosine-protein kinase receptor Ret (RET, Homo sapiens, UniProt P07949, V804M)).
The remaining binding was 91% (Receptor-type tyrosine-protein kinase FLT3 (FLT3, Homo sapiens, UniProt P36888, N841I)).
Receptor-type tyrosine-protein kinase FLT3 (FLT3, Homo sapiens, UniProt P36888, R834Q) — remaining binding: 79%.
Mitogen-activated protein kinase 4 (MAPK4, Homo sapiens, UniProt P31152) — remaining binding: 100%.
The remaining binding was 100% (cAMP-dependent protein kinase catalytic subunit beta (PRKACB, Homo sapiens, UniProt P22694)).
The remaining binding was 100% (Serine/threonine-protein kinase 17B (STK17B, Homo sapiens, UniProt O94768)).
Mitogen-activated protein kinase kinase kinase 7 (MAP3K7, Homo sapiens, UniProt O43318) — remaining binding: 100%.
cAMP-dependent protein kinase catalytic subunit alpha (PRKACA, Homo sapiens, UniProt P17612) — remaining binding: 100%.
Phosphatidylinositol 4,5-bisphosphate 3-kinase catalytic subunit alpha isoform (PIK3CA, Homo sapiens, UniProt P42336, H1047L) — remaining binding: 77%.
It gave 95% for remaining binding (Mitogen-activated protein kinase kinase kinase kinase 1 (MAP4K1, Homo sapiens, UniProt Q92918)).
For Serine/threonine-protein kinase LATS1 (LATS1, Homo sapiens, UniProt O95835): remaining binding read 100%.

Other studies, line by line
CCCC[S+]([O-])c1[nH]c2c(C(C)C)cccc2c(=O)c1C(C)=O (stereo not shown) gave a remaining compound of 13.7% (human, microsomes or S9; 2 µM, 0.5 h).
Under “patients with TEAE”, CC(C)n1cnc(-c2ccc(F)cc2)c1-c1ncc(C(=O)Nc2ccc(N3CCN(C)CC3)cc2)[nH]1 is recorded as 0% (phase 2a trial; idiopathic pulmonary fibrosis patients; oral, dose not given, LDL increased, grade 2, all arms).
